Results gathered from unrelated publications.
A part holds a random share of what one study measured. Values joined by “and” are separate records of one study, mostly repeats; a detail may differ.
Sequence of UniProt P35368 (whole entry, looked up): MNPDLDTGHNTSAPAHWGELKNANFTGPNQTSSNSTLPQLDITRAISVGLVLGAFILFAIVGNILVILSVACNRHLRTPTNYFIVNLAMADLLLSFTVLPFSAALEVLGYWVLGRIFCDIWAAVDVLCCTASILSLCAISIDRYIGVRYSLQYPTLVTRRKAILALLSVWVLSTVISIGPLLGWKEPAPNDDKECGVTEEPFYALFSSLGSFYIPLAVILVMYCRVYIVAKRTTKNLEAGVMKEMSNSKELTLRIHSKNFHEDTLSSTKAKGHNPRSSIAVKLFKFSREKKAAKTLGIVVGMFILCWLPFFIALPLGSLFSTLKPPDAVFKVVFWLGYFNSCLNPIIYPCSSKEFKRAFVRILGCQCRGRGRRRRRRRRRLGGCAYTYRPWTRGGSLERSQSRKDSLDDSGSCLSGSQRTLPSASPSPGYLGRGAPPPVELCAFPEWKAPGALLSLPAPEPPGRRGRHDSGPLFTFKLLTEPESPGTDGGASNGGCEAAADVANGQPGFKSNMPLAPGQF
Sequence of UniProt P25021 (whole entry, looked up): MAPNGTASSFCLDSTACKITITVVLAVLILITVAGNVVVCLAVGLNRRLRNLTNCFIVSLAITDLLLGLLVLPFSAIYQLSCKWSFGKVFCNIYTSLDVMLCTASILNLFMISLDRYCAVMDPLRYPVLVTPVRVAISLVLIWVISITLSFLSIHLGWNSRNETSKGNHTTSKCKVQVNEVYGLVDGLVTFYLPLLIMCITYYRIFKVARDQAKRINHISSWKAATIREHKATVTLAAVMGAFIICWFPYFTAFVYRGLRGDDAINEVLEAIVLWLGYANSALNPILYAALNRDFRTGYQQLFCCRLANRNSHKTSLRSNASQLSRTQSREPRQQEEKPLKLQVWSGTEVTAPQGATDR
Sequence of UniProt P08172 (whole entry, looked up): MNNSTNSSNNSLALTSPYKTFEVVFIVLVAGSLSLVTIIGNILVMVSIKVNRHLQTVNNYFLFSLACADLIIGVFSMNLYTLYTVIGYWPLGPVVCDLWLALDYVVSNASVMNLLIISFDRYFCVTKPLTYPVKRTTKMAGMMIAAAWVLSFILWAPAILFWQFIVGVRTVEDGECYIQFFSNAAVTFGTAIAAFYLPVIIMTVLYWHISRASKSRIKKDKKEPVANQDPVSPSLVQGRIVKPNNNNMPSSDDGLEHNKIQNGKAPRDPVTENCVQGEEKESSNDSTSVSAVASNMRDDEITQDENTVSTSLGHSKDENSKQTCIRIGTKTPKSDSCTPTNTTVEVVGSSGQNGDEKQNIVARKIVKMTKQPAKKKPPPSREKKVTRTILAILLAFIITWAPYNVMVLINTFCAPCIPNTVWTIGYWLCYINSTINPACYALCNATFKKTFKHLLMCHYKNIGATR
Sequence of UniProt P18089 (whole entry, looked up): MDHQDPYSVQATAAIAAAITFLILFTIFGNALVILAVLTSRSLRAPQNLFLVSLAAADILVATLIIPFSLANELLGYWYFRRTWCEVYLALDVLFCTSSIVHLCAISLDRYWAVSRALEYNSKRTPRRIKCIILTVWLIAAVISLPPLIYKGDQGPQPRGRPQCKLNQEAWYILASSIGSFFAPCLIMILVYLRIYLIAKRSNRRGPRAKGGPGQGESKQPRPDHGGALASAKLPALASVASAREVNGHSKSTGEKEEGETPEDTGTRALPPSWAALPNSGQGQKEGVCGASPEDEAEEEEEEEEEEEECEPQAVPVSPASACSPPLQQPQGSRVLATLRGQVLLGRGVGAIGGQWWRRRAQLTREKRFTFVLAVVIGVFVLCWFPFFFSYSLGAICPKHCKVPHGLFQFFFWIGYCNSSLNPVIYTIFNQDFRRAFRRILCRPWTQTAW
Sequence of UniProt P08173 (whole entry, looked up): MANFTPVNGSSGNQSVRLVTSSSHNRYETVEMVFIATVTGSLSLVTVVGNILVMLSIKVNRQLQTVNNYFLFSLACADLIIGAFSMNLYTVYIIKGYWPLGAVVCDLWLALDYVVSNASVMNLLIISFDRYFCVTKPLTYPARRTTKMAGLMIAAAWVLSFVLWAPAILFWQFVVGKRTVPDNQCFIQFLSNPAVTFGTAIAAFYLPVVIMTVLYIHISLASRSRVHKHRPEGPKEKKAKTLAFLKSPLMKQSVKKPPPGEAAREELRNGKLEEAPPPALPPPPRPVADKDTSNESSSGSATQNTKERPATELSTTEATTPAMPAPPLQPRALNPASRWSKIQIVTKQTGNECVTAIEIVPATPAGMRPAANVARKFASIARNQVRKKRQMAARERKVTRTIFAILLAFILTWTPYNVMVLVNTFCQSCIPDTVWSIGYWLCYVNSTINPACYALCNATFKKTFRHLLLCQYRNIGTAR

Sample 1 — effect on: enzyme activity; mode: inhibitor; concentration: 0.5 µM; reference: control
Target: Phosphorylase b kinase gamma catalytic chain, liver/testis isoform (PHKG2, Homo sapiens, UniProt P15735)
Residues (P15735 1-406): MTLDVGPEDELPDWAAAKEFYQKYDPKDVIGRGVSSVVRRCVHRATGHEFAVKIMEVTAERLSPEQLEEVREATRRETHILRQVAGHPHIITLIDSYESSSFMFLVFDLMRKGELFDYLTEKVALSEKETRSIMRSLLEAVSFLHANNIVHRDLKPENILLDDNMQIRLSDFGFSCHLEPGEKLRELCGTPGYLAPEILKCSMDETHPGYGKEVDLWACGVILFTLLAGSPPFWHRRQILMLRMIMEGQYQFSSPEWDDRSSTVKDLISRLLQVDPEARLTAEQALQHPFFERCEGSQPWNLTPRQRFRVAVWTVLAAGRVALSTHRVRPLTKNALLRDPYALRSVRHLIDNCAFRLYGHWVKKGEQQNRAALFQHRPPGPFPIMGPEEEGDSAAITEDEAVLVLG
SMILES	remaining activity [%]
O=S(=O)(NCCNC/C=C/c1ccc(Br)cc1)c1cccc2cnccc12	88.8
NC(=O)c1ccc(N(C(N)=O)c2c(F)cccc2F)nc1-c1ccc(F)cc1F	93.1
CC(C)(C)n1nc(Cc2cccc3ccccc23)c2c(N)ncnc21	95.8
Nc1nccc(-c2c(-c3ccc(F)cc3)ncn2C2CCNCC2)n1	104
CC[n+]1c(/C=C/N(C)c2ccccc2)n(-c2ccccc2)c2ccc(-c3nc4ccccc4s3)cc21	102
CCc1[nH]c(-c2ccc(OC)cc2)nc1-c1ccncc1	111
O=C1Cc2c([nH]c3ccc([N+](=O)[O-])cc23)-c2ccccc2N1	101
Oc1ccc(Nc2nc(-c3ccc(Cl)cc3)cs2)cc1	99.9
CSc1nc(-c2ccnc(N[C@@H](C)c3ccccc3)c2)c(-c2ccc(F)cc2)[nH]1 (racemic)	125
COc1cc(Nc2c(C#N)cnc3cc(OCCCN4CCN(C)CC4)c(OC)cc23)c(Cl)cc1Cl	103
CC(=O)c1ccc(N2CCOCC2)cc1O	98.1
CCCC(=O)Oc1ccc2[nH]c(C(=O)c3cc4ccccc4[nH]3)cc2c1	117
N#CC(=C(N)Sc1ccc(N)cc1)c1ccccc1C(F)(F)F	96
O=C1NC(=O)C(c2c[nH]c3ccccc23)=C1c1c[nH]c2ccccc12	107
COc1ccc(S(=O)(=O)N(CCO)c2ccccc2CN(C)CC=Cc2ccc(Cl)cc2)cc1	103
Cc1cncc2cccc(S(=O)(=O)N3CCCN(C(=O)CN)C[C@@H]3C)c12	90.5
CC#CC(=O)Nc1cc2c(Nc3ccc(F)c(Cl)c3)ncnc2cn1	99
Nc1ncnc2c1cnn2-c1ccccc1	94.1
Cc1cc(Nc2nc(-c3ccccc3)nc3ccccc23)n[nH]1	86.3
Fc1ccc(-c2nc3n(c2-c2ccncc2)CCS3)cc1	104
Cc1ccc(NC2=CC(=O)c3sc(C)nc3C2=O)cc1	96.3

Sample 2 — mode: inhibitor; concentration: concentration not given; together with: with ssDNA
Target: DNA polymerase theta, helicase domain (POLQ, Homo sapiens, UniProt O75417)
Sequence of UniProt O75417 (whole entry, looked up): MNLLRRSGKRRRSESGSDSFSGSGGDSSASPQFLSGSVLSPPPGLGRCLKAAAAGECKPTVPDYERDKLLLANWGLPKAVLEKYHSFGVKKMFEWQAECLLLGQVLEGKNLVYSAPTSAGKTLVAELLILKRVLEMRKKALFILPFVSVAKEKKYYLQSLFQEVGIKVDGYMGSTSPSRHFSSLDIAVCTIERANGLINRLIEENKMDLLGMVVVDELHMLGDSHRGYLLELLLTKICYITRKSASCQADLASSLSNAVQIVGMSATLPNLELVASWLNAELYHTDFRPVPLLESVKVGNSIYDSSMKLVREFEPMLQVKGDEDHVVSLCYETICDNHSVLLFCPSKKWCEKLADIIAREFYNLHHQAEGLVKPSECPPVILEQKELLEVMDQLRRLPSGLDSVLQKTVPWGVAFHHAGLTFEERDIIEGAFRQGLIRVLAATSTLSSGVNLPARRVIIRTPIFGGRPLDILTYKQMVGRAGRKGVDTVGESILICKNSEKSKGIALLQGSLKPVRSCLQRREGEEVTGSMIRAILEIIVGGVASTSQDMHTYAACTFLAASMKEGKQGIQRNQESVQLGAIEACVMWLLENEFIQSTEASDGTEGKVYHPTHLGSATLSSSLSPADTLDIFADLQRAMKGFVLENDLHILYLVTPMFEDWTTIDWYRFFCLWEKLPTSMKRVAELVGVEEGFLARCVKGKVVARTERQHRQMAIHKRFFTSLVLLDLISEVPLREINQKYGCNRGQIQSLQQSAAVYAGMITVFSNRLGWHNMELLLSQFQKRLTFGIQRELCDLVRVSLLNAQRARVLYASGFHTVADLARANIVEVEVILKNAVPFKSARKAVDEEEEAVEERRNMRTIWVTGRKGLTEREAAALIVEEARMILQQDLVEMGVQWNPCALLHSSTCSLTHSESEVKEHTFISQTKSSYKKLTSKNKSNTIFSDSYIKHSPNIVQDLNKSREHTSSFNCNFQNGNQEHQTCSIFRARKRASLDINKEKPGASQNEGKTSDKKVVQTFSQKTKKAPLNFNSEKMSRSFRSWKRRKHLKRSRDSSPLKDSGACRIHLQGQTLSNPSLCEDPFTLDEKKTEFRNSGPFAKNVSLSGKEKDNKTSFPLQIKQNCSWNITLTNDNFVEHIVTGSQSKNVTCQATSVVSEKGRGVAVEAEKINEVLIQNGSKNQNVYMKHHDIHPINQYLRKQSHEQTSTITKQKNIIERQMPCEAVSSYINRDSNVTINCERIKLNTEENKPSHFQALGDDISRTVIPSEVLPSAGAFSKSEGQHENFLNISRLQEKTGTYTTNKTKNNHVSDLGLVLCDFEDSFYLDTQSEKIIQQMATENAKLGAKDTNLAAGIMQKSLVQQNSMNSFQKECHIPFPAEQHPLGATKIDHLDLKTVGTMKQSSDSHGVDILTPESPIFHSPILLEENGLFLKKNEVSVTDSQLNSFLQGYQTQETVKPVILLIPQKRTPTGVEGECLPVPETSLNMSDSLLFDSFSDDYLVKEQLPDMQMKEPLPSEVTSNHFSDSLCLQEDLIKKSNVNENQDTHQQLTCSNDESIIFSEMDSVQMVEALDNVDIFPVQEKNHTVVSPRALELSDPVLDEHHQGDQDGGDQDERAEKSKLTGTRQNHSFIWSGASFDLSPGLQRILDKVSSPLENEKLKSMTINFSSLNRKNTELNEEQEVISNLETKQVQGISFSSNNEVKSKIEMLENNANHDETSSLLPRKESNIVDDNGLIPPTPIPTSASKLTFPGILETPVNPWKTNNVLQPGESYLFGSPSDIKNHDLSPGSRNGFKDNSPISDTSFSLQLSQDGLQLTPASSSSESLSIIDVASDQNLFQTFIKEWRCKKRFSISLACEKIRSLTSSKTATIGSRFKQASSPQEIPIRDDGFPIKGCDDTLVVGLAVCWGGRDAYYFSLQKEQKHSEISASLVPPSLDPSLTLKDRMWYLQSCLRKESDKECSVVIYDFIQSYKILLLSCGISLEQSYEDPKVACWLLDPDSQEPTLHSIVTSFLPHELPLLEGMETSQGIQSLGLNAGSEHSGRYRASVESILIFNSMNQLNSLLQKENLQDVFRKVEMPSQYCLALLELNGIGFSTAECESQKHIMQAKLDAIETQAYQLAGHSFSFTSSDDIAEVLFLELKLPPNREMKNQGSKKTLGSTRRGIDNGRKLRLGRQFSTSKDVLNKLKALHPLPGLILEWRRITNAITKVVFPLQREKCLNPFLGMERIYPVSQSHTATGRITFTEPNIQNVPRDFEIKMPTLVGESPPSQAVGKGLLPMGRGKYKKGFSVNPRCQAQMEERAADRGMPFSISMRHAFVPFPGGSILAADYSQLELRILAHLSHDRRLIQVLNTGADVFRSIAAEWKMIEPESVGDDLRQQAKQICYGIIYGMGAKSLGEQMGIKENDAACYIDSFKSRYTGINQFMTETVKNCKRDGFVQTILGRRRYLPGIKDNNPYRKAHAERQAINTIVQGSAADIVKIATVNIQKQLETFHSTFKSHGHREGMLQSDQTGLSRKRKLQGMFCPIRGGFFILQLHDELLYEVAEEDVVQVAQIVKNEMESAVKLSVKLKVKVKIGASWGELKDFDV
SMILES	remaining activity
Cc1ccccc1C(=O)Nc1sc2c(c1C(=O)O)CCC(C(C)(C)C)C2 (stereo not drawn)	65.8% and 65.7%
O=C1c2c(O)ccc(O)c2C(=O)c2c(NCCNCCO)ccc(NCCNCCO)c21	22.7% and 22.2%
O=C(Nc1ccccc1C(=O)O)c1cccc(S(=O)(=O)N2CCCC2)c1	57.3% and 55.3%
CCCCCCCCCCC/C=C\C(C)(C)/C=C\CCCC(=O)O	95.8% and 99.9%
C[C@H]1[C@H](C)CC[C@]2(C(=O)O)CC[C@]3(C)C(=CC[C@@H]4[C@@]5(C)C[C@@H](O)[C@H](O)[C@@](C)(CO)[C@@H]5CC[C@]43C)[C@H]12	55.6% and 56.9%
Cc1ccc(C(=O)Nc2ccc(S(=O)(=O)[O-])c3cc(S(=O)(=O)[O-])cc(S(=O)(=O)[O-])c23)cc1NC(=O)c1cccc(NC(=O)Nc2cccc(C(=O)Nc3cc(C(=O)Nc4ccc(S(=O)(=O)[O-])c5cc(S(=O)(=O)[O-])cc(S(=O)(=O)[O-])c45)ccc3C)c2)c1.[Na+].[Na+].[Na+].[Na+].[Na+].[Na+]	2.57% and 2.71%
COc1cc(NC(=O)CSc2ncc(S(=O)(=O)c3ccc(Br)cc3)c(=O)[nH]2)cc(OC)c1	75.7% and 83.4%
CCCCCCCC/C=C\CCCCCCCC(=O)O	103% and 97.3%
CC1=Nc2cc(C(=O)NCCc3ccc(Cl)cc3)ccc2Sc2ccc(C)cc21	65% and 64.7%
COc1ccc(C(=O)Nc2noc3ccccc23)cc1	64% and 62.2%
COc1cc2c(cc1Cc1cccc(Cl)c1F)c(=O)c(C(=O)O)cn2[C@H](CO)C(C)C	81.2% and 81.7%
COC(=O)c1cc(Cl)ccc1NC(=O)CSc1ncc(S(=O)(=O)c2ccc(Br)cc2)c(=O)[nH]1	38.6% and 34.7%

Sample 3 — organism: Plasmodium berghei; mode: inhibitor; cells: Huh-7; strain: GFP-expressing sporozoites, liver stage; concentration: 10 µM; time: 24 h; reference: untreated control
Compound	infection rate
c1ccc(-c2ccc(C(c3ccccc3)n3ccnc3)cc2)cc1 (stereo not drawn)	52.2%
CO/N=C(\C(=O)N[C@@H]1C(=O)N2C(C(=O)OC(C)OC(C)=O)=C(COC(N)=O)CS[C@H]12)c1ccco1 (stereo partly drawn)	91.9%
Cc1cc(C2CCCCC2)n(O)c(=O)c1	18.6%
CC(C)COCC(CN(Cc1ccccc1)c1ccccc1)N1CCCC1 (stereo not drawn)	76.8%
C=C(CC)C(=O)c1ccc(OCC(=O)O)c(Cl)c1Cl	88.5%
COC(=O)[C@H](Cc1ccccc1)NC(=O)[C@@H](N)CC(=O)O	83.8%
OC(CCN1CCCCC1)(c1ccccc1)C1C[C@@H]2C=C[C@H]1C2 (stereo partly drawn)	103%
O=C(O)c1cc(=O)c2c(OCC(O)COc3cccc4oc(C(=O)O)cc(=O)c34)cccc2o1	81.1%
NC(=O)c1cc[n+](CC2=C(C(=O)O)N3C(=O)[C@@H](NC(=O)[C@@H](c4ccccc4)S(=O)(=O)[O-])[C@H]3SC2)cc1	107%
C[C@]12CCC(=O)C=C1CC[C@@H]1[C@@H]2C(=O)C[C@@]2(C)[C@H]1CC[C@]2(O)C(=O)CO	92.1%
CCN(CC)CCNC(=O)c1ccc(NC(C)=O)cc1	75.1%
O=C1CN(/N=C/c2ccc(-c3ccc([N+](=O)[O-])cc3)o2)C(=O)N1	102%

Sample 4 — effect on: binding; technique: radioligand binding; concentration: 10 µM
Compound: CCS(=O)(=O)c1cc2cc(C[C@@](O)(CC(C)(C)c3ccc(F)cc3C(N)=O)C(F)(F)F)[nH]c2cn1
target	inhibition [%]
Histamine H2 receptor (HRH2, Homo sapiens, UniProt P25021)	6.84
Alpha-2C adrenergic receptor (ADRA2C, Homo sapiens, UniProt P18825)	5.83
5-hydroxytryptamine receptor 7 (HTR7, Homo sapiens, UniProt P34969)	4.44
Muscarinic acetylcholine receptor M4 (CHRM4, Homo sapiens, UniProt P08173)	18.2
D(1A) dopamine receptor (DRD1, Homo sapiens, UniProt P21728)	2.6
Alpha-1B adrenergic receptor (ADRA1B, Homo sapiens, UniProt P35368)	1.64
Muscarinic acetylcholine receptor M2 (CHRM2, Homo sapiens, UniProt P08172)	-8.82
Alpha-1D adrenergic receptor (ADRA1D, Homo sapiens, UniProt P25100)	-14.8
Histamine H1 receptor (HRH1, Homo sapiens, UniProt P35367)	6.19
Histamine H4 receptor (HRH4, Homo sapiens, UniProt Q9H3N8)	2.05
Alpha-2B adrenergic receptor (ADRA2B, Homo sapiens, UniProt P18089)	6.5
Beta-3 adrenergic receptor (ADRB3, Homo sapiens, UniProt P13945)	0.63

Some of these lines once more (sample 4):
target	inhibition [%]
Alpha-2B adrenergic receptor (ADRA2B, Homo sapiens, UniProt P18089)	6.5
Beta-3 adrenergic receptor (ADRB3, Homo sapiens, UniProt P13945)	0.63
5-hydroxytryptamine receptor 7 (HTR7, Homo sapiens, UniProt P34969)	4.44
Alpha-1B adrenergic receptor (ADRA1B, Homo sapiens, UniProt P35368)	1.64
Histamine H4 receptor (HRH4, Homo sapiens, UniProt Q9H3N8)	2.05
Histamine H2 receptor (HRH2, Homo sapiens, UniProt P25021)	6.84
Muscarinic acetylcholine receptor M2 (CHRM2, Homo sapiens, UniProt P08172)	-8.82
